Assay results collected from several papers.
Parts stem from different laboratories: compare values within a part only.
UniProt P23975, sequence (whole entry, looked up): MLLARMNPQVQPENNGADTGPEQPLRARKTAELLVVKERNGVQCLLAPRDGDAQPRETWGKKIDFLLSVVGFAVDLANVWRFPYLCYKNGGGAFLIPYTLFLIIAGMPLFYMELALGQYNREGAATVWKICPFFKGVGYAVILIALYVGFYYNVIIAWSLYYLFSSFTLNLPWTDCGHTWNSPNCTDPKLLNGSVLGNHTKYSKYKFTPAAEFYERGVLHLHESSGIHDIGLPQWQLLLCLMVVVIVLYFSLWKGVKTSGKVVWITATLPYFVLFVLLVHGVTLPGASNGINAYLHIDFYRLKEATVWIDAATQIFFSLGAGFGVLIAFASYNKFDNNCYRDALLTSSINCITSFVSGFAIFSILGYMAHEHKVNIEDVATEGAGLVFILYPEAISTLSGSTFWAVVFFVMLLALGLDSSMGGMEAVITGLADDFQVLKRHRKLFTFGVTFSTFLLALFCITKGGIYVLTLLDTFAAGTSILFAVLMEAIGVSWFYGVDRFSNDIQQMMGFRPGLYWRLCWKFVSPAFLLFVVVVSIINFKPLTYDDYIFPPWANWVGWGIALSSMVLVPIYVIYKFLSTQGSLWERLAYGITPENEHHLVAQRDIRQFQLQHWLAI
UniProt Q01959, sequence (whole entry, looked up): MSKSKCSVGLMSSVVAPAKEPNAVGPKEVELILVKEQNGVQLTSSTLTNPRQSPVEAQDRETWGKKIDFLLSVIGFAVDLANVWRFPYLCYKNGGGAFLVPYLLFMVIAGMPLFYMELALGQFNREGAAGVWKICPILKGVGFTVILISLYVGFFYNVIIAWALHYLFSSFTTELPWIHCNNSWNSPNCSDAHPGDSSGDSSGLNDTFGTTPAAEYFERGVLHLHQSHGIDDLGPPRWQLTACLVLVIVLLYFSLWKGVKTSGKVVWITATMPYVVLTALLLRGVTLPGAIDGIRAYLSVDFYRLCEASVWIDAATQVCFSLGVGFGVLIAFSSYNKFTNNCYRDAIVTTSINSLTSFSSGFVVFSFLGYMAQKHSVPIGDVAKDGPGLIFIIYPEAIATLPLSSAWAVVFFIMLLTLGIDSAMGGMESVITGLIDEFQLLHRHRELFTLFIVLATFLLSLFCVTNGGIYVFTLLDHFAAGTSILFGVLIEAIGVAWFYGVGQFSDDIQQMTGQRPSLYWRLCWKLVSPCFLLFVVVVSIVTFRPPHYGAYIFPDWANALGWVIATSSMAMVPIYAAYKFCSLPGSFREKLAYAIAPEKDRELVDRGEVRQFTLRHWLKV
UniProt P35372, sequence (whole entry, looked up): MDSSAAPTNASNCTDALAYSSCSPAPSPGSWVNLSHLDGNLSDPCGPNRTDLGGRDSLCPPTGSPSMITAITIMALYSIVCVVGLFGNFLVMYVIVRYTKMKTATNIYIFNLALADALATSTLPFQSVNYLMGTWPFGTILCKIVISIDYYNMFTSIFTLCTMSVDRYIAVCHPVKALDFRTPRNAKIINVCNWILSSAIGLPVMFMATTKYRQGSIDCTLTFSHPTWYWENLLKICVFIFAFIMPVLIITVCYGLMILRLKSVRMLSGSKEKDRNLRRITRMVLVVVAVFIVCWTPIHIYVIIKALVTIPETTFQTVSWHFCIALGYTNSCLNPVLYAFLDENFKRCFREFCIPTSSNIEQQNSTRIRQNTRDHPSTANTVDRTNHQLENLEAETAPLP
UniProt P20309, sequence (whole entry, looked up): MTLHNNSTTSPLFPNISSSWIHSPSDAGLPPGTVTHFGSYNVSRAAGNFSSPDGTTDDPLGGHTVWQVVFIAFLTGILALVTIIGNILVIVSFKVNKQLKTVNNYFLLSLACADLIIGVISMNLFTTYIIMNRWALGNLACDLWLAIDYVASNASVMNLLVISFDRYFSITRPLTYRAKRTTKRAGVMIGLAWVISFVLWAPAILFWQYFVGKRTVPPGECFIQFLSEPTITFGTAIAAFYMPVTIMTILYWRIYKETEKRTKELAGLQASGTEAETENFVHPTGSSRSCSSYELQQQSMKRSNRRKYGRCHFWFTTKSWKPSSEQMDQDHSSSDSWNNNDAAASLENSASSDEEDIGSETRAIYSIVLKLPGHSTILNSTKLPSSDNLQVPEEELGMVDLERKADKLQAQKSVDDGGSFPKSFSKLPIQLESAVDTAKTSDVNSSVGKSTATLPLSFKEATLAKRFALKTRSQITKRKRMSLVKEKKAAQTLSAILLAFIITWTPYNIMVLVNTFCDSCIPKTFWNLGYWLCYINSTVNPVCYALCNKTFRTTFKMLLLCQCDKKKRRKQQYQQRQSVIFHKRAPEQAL
UniProt P41145, sequence (whole entry, looked up): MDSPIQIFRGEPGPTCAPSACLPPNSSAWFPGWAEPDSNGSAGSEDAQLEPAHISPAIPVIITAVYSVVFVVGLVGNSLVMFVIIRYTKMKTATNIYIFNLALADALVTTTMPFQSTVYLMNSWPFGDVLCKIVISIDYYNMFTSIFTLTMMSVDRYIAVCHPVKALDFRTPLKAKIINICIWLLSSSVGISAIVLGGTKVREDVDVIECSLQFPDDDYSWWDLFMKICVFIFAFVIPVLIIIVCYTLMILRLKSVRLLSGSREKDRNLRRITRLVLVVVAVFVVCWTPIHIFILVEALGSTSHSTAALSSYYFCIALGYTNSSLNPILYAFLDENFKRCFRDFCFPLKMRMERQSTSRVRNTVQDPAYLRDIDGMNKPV
UniProt P31645, sequence (whole entry, looked up): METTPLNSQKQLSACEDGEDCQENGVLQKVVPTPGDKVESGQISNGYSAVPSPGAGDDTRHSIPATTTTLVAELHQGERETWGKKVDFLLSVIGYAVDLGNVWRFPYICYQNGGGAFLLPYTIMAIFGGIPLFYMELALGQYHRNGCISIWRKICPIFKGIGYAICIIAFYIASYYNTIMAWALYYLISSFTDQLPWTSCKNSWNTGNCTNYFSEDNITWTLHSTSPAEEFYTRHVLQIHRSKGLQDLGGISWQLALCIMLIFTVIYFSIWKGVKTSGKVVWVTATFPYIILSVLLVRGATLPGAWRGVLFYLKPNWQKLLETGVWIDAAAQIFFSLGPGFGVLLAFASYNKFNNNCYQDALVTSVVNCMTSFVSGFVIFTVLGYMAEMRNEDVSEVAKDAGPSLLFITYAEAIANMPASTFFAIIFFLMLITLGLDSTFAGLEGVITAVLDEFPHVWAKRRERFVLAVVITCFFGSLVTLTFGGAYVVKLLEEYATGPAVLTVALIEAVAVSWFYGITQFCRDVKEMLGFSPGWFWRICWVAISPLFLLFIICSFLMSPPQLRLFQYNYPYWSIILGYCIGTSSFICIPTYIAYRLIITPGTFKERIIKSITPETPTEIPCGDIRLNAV
UniProt P21918, sequence (whole entry, looked up): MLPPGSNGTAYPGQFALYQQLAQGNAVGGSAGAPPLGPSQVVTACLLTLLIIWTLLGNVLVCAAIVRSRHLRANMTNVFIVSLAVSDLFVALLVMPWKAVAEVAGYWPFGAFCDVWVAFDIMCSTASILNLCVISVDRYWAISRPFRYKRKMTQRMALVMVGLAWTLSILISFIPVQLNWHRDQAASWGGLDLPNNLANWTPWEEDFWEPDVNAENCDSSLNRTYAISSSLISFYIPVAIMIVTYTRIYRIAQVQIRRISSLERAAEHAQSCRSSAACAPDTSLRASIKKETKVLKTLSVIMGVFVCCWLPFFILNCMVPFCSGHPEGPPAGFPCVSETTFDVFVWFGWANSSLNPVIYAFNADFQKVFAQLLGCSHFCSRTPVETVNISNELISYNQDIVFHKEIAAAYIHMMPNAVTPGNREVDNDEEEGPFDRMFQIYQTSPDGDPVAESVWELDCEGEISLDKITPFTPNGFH

Block 1
Cell line: mouse MPNST tumor cells
Technique: high-content immunofluorescence imaging
Refers to: nuclear SOX9
Tested at: 10 µM
Time: 12 h
Notes: mean of 2 replicates
Baseline: DMSO control
Direction: higher = more nuclear SOX9
CC(=O)OC1CN2CCC1CC2 (stereo not drawn): “nuclear SOX9 intensity” 97.5 % of DMSO.
For Nc1ncnc2c1ccn2[C@@H]1O[C@H]([C@H](O)c2ccccc2)[C@@H](O)[C@H]1O, “nuclear SOX9 intensity” read 105 % of DMSO.
CN[C@@H]1[C@@H](O)[C@@H](O[C@@H]2[C@@H](O)[C@H](O[C@H]3O[C@H](CN)CC[C@H]3N)[C@@H](N)C[C@H]2N)OC[C@]1(C)O.CN[C@@H]1[C@@H](O)[C@@H](O[C@@H]2[C@@H](O)[C@H](O[C@H]3O[C@H]([C@@H](C)N)CC[C@H]3N)[C@@H](N)C[C@H]2N)OC[C@]1(C)O.CN[C@@H]1[C@@H](O)[C@@H](O[C@@H]2[C@@H](O)[C@H](O[C@H]3O[C@H]([C@@H](C)NC)CC[C@H]3N)[C@@H](N)C[C@H]2N)OC[C@]1(C)O: “nuclear SOX9 intensity” 104 % of DMSO.
Under “nuclear SOX9 intensity”, C=CC[C@]1(O)CC[C@H]2[C@@H]3CCC4=CC(=O)CCC4=C3C=C[C@@]21C is recorded as 92.7 % of DMSO.

Block 2
Organism: Sarcocystis neurona
Read-out: parasite growth
Tested at: concentration not given
Notes: first screen
Baseline: untreated
C[N+]1(CCC(C(N)=O)(c2ccccc2)c2ccccc2)CCCCC1.[Br-]: “log2 fold change” 0.27.
COC(=O)N1CCN(C(=O)Cc2ccc(Cl)c(Cl)c2)C(CN2CCCC2)C1.O=C(O)/C=C/C(=O)O (stereo not drawn): “log2 fold change” -0.08.
For C=C(C)CN1CC[C@]23c4c5ccc(O)c4O[C@H]2c2[nH]c4ccccc4c2C[C@@]3(O)C1C5.Cl.O, “log2 fold change” read -0.63.
C[N+]1(C)CCN(c2ccccc2)CC1.[I-] — result for “log2 fold change”: -0.035.
Under “log2 fold change”, CCCCCCCCCOc1ccc2[nH]cc(CCN)c2c1 is recorded as 0.09.
CCN(CC)CCOC(=O)C(O)(c1ccccc1)c1ccccc1.Cl: “log2 fold change” -0.00689.
For COc1ccc2[nH]cc(C3=CCNCC3)c2c1.O=C(O)CCC(=O)O, “log2 fold change” read -0.00468.

Block 3
Cell line: HEK-293T/ACE2
Tested at: concentration not given
Time: 16 (unit not given)
Baseline: vehicle
CCOC(=O)C1=C(C)NC(C)=C(C(=O)OC)C1c1cccc(Cl)c1Cl (stereo not drawn) gave a viability of 94.1%.
COc1ccnc(C[S+]([O-])c2nc3ccc(OC(F)F)cc3[nH]2)c1OC (stereo not drawn) has a viability of 102%.
For COC(=O)C1=C(C)NC(C)=C(C(=O)OCC(C)C)C1c1ccccc1[N+](=O)[O-] (stereo not drawn), the viability was 101%.
With Cc1ccc(C(=O)c2cc(O)c(O)c([N+](=O)[O-])c2)cc1 the viability was 80.3%.
For CNC[C@H](O)c1cccc(O)c1, the viability was 98.6%.
CC#CCn1c(N2CCC[C@@H](N)C2)nc2c1c(=O)n(Cc1nc(C)c3ccccc3n1)c(=O)n2C gave a viability of 104%.
CC1(C)O[C@@H]2C[C@H]3[C@@H]4C[C@H](F)C5=CC(=O)C=C[C@]5(C)[C@H]4[C@@H](O)C[C@]3(C)[C@]2(C(=O)CO)O1 has a viability of 103%.
The viability of C[C@@H]1O[C@@H]1P(=O)(O)O is reported as 104%.
For CC1(C)O[C@@H]2C[C@H]3[C@@H]4CCC5=CC(=O)CC[C@]5(C)[C@@]4(F)[C@@H](O)C[C@]3(C)[C@]2(C(=O)CCl)O1, the viability was 90.5%.

Block 4
Structure (SMILES): CCCCN(CCCC)C(=O)CN1C[C@@H](c2cc(OC)c3c(c2)OCO3)[C@H](C(=O)O)[C@H]1CC(C)(C)CCC
Read-out: binding
Technique: radioligand binding
Tested at: 10 µM
Sodium-dependent noradrenaline transporter (SLC6A2, Homo sapiens, UniProt P23975) — inhibition: 38.5%.
It gave 23% for inhibition (Sodium-dependent dopamine transporter (SLC6A3, Homo sapiens, UniProt Q01959)).
The inhibition was 30.5% (D(1B) dopamine receptor (DRD5, Homo sapiens, UniProt P21918)).
Mu-type opioid receptor (OPRM1, Homo sapiens, UniProt P35372) — inhibition: 58.5%.
It gave 69.9% for inhibition (Kappa-type opioid receptor (OPRK1, Homo sapiens, UniProt P41145)).
For Muscarinic acetylcholine receptor M3 (CHRM3, Homo sapiens, UniProt P20309): inhibition read 10.3%.
It gave -7.99% for inhibition (Sodium-dependent serotonin transporter (SLC6A4, Homo sapiens, UniProt P31645)).

Repeated from above (block 2):
COC(=O)N1CCN(C(=O)Cc2ccc(Cl)c(Cl)c2)C(CN2CCCC2)C1.O=C(O)/C=C/C(=O)O (stereo not drawn): “log2 fold change” -0.08.
For C=C(C)CN1CC[C@]23c4c5ccc(O)c4O[C@H]2c2[nH]c4ccccc4c2C[C@@]3(O)C1C5.Cl.O, “log2 fold change” read -0.63.
